Assay results collected from several papers.
Every numbered part comes from another study and shows a few of its results, in no order.

Series 1 — technique: RNA Bind-n-Seq; form: RNA; medium: in vitro; tested at: 365 nM; baseline: no-protein control; direction: higher = stronger binding; measurement: RBNS enrichment (R)
Target: RNA binding protein fox-1 homolog 2, RRM domain, GST-SBP tag (RBFOX2, Homo sapiens, UniProt O43251-10, residues 100-194)
Notes: natural RNA segment, single round, ends assumed
Residues (chain): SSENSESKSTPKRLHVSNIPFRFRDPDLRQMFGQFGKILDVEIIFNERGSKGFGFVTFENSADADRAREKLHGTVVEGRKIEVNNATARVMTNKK
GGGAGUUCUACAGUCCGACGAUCCUUGAGGACACUGGGCCCCCAUGGAAUCCCUCCAUGCCCUAGCAUGGCUAAAUGCUGAAGGUGGAGGUUCAGCAUGUCUGACAACCCGGAUGUACACCGUAGAAGUGCCAUGGAAUUCUCGGGUGCCAA: 1.68
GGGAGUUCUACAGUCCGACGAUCCUGGCUCCCGCCCCACCUGCCCCUGGCGGCUUAUCCAAUGUCCCCACGGAGUCCGGUGUGGGGGGUUUGGUUCUAACUGUCCUGGUGAUGCCUCUCUGAGUGGAAAUCUUUGGAAUUCUCGGGUGCCAA: 0.691
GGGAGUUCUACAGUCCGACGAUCCUCUAUCCUUUUGAGCUCUUCUGUCUUUUUAUAGUAAGCUUCCUCCACCUGUGUUGCUUUUGUAACUUGAUAUUUAUGCAGGGUUUUGUAGUUUUUAUUAUGUAGUGACUUGGAAUUCUCGGGUGCCAA: 0.549
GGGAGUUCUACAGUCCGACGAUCAGAUCAGAAUGCCUGUUCGUGGUUUCAUAUAAUAUAUUUUUCUAAAAGCAUAGAUUGCACAGGAAGGUAUGAGUACAAAUACUGUAAUGCAUAACUUGUUAUUGUCCUAGUGGAAUUCUCGGGUGCCAA: 3.2
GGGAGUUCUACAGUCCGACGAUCGUCUGUGGUUAACACCCUGGGAUAAUUGUGAUGGGCAGAUGCGCAGUAAUGGCCUGUGUUGGUAACAAUAUUAUCUAGUUCAAUGCCAUGCAGUAGCAUUGUAUAGCAACUGGAAUUCUCGGGUGCCAA: 0.388
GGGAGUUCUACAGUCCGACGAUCCUGCCUGCCUGCGAGGCACCUGCCUUGCAGCAGGCUCUCAGCCCUUCCCUCUGAGCUGCUCAGAGAGGGUAGCUAGCCCAAUGAUGUGGCCCGUGGACAGGAUAAGCAGAUGGAAUUCUCGGGUGCCAA: 0.224
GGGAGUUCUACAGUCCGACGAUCGAAGGGAAAUGUUGAGCCAAAGUUAUGCCUGCGAAGACCCUAAGGUCUCAAAAAGAAGUCUUAAGACGGCAUUGCUUAAGGUGCUUCAUUCCCUAAUCCCCUUUUGAUUUUGGAAUUCUCGGGUGCCAA: 0.318
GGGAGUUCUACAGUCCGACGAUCAACAGCCCCACACAGCUCUGAUUCCAUAGCUGCAUUAAAGAUGAUUAUUUAUAUUACAGAGAAAAGAGGGAUCGGCCCUCCAAGGACCAGACAGAUUGAGAGAGAGUCACUGGAAUUCUCGGGUGCCAA: 0.488

Series 2 — technique: protein binding microarray; form: double-stranded DNA, one strand shown; medium: in vitro; tested at: not given; baseline: not given; direction: higher = stronger binding; measurement: E-score
Target: Histone acetyltransferase KAT6A, winged helix 2, GST fusion (KAT6A, Homo sapiens, UniProt Q92794, residues 85-181)
Notes: 8-mer, flanks averaged, mean of 2 arrays, mostly near background
Residues (chain): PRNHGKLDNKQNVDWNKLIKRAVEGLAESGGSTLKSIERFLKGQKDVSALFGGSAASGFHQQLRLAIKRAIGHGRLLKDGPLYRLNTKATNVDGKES
CGAAGAAA: 0.137
CCATGCCG: 0.301
GCACTCCC: 0.0393
AGCGTCAG: -0.0273
CCTTCATC: -0.044
CGGTGCAA: 0.0664
ACCAACGC: -0.0752
ACCCATTA: -0.164
AAGATCCA: 0.137
GTAACGAA: -0.0179
GTTGGCGA: 0.223
GGCAAAGA: 0.107
CCAACGCA: 0.125
AAAATTAA: 0.148
ATGGCCGA: 0.0336
AGAACCGC: 0.143
TGTCGAAA: -0.0206
AATCCATG: 0.158
CATCTACA: -0.152
AAACTCCA: 0.0912
GAAAACCA: 0.0361
ACGTGTTA: -0.243
CCAGGTCG: -0.07

Series 3 — technique: RNA Bind-n-Seq; form: RNA; medium: in vitro; tested at: 200 nM; notes: whole 134-nt RNA, ends assumed; together with: 150 mM LiCl; baseline: input library; direction: higher = stronger binding; measurement: log2 enrichment; library: 7-deaza-guanosine replaces G
Target: Ras GTPase-activating protein-binding protein 1, full length (G3BP1, Homo sapiens, UniProt Q13283)
UniProt Q13283, sequence (whole entry, looked up): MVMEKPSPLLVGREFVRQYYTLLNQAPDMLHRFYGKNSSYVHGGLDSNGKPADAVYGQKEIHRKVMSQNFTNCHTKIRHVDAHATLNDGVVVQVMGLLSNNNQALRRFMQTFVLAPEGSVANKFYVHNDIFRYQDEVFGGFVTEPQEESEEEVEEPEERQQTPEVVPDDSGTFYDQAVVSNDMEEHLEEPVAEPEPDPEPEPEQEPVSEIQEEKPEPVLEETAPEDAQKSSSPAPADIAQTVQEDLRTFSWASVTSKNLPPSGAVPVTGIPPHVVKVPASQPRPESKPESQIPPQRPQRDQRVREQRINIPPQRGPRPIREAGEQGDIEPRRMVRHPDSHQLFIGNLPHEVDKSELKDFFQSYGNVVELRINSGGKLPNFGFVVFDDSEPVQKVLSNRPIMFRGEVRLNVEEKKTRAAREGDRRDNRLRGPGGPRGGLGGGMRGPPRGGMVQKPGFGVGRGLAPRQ
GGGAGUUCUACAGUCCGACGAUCGCAGGUAGUAAAAACAAAUGGAAAUGCUUCGGAUAGUGGCAGGGGUGGGGGUUGCUAAGGAAAGGGUGGGAUGGGAGUGGGUAAAGAGUUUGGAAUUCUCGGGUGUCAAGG: 0.0677
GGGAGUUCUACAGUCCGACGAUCAGUCCUGUGCUACACAUCGUAUGUACCGAAUCGGGAAAAAGGGUUUGGGAAAAAGGGAAAGUAUUAUGUUACGCCGUUCGGAUCUGCACUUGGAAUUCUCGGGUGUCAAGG: -1.67
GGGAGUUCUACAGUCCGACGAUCGCAGGAAGUAAAAACAAAUGGAAAUGAAACGGAUAGUGGCAGGGGUGGGGGUUGCUAAGGAAAGGGUGGGAUGGGAGUGGGUAAAGAGUUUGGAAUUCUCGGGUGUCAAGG: -0.0202
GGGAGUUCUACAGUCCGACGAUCUCAAGUCCUGUGCUACACAUCGUAUGUACCGAAUCGGGAGGGUUUUUGGGUGGGAAAGUAUUAUGUUACGCCGUUCGGAUCUGCACUUCCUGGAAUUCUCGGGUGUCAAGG: 0.029
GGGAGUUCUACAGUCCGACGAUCAAGUCCUGUGCUACACAUCGUAUGUACCGAAUCGGGUUUUUGGGAAAAAGGGUGGGAAAGUAUUAUGUUACGCCGUUCGGAUCUGCACUUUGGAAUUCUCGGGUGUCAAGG: -1.31
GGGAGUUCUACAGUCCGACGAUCUCCUGUGCUACACAUCGUAUGUACCGAAUCGGGUUUUUGGGUUUUUGGGUUUUUUUGGGAAAGUAUUAUGUUACGCCGUUCGGAUCUGCAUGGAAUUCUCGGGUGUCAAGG: 0.556
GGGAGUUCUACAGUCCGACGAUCUUGAUUGAUAUUACAGGCAAGAACCAGGAUGAAUGUGUGAUUGCUUUGCAUGACUGCAAUGGAGAUGUCAACAGAGCUAUCAAUGUUCUUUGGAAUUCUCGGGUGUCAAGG: -3.84
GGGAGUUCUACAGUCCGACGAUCUAACUUUAGAGGAGGAUCUGAUGGAUAUGGCAGUGGACGUGGAUUUGGGGAUGGCUAUAAUGGGUAUGGAUGAGGACCUGGAGGUGGCAAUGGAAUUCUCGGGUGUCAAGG: -0.0928

Series 4 — technique: RNA Bind-n-Seq; form: RNA; medium: in vitro; tested at: 90 pmol; notes: 4-mer, random 30-nt RNA, single round; baseline: input library; direction: higher = stronger binding; measurement: 4-mer enrichment
Target: Eukaryotic initiation factor 4A-I (EIF4A1, Homo sapiens, UniProt P60842, residues 1-406, full length assumed)
UniProt P60842, sequence (whole entry, looked up): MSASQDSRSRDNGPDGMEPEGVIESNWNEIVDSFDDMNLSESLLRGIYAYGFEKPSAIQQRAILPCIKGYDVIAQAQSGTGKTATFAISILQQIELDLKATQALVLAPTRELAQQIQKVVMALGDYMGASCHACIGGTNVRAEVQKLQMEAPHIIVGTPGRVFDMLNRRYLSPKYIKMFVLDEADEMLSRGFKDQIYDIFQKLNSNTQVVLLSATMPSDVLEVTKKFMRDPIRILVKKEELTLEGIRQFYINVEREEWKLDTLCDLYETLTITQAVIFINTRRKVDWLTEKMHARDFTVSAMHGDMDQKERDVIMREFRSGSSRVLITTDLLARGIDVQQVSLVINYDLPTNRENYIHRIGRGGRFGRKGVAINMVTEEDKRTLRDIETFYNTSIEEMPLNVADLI
Together with: 3 µM iPr-DMDA-PatA, 2 mM ADP, 2 mM phosphate
GCCU: 0.766 fold
CACC: 0.995 fold
UUAC: 1.13 fold
GUCC: 0.879 fold
AUAG: 1.24 fold
ACAG: 1.09 fold
UCAC: 1.08 fold
UUCC: 0.987 fold
UUUA: 1.25 fold
UUAU: 1.21 fold
GAUG: 0.986 fold
CAGG: 0.843 fold
AUGU: 1.07 fold
AGAG: 1.23 fold
UUUC: 1.05 fold
CAGC: 0.834 fold
CCGC: 0.752 fold
ACGC: 0.909 fold
AUCC: 1.13 fold
CACA: 1.08 fold
CGCC: 0.746 fold
GAGC: 0.934 fold
CAAG: 1.14 fold
CUGG: 0.73 fold
CCCA: 1.02 fold

Excerpt of the above (series 4):
AUAG: 1.24 fold
ACAG: 1.09 fold
UCAC: 1.08 fold
UUCC: 0.987 fold
UUUA: 1.25 fold
UUAU: 1.21 fold
